Published values collected from several papers.
Parts stem from different laboratories: compare values within a part only.

Series 1
Target: Histone acetyltransferase KAT6A, winged helix 1, GST fusion (KAT6A, Homo sapiens, UniProt Q92794, residues 1-85)
Method: protein binding microarray
Form: double-stranded DNA, one strand shown
Matrix: in vitro
Tested at: not given
Setting: 8-mer, flanks averaged, mean of 2 arrays, mostly near background
Reference: not given
Reading: higher = stronger binding
Construct (chain): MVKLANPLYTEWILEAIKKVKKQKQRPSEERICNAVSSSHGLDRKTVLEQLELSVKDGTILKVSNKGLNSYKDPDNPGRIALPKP
| Oligonucleotide | E-score |
| --- | --- |
| CCACCTAA | -0.153 |
| GGGCCAGA | -0.0219 |
| AAGTGGAA | -0.184 |
| ACATAGGG | -0.0383 |
| AACCAATA | -0.152 |
| CATCCATG | -0.107 |
| CCCGTTTC | 0.243 |
| AATCGGAT | 0.00384 |
| AACAAGGT | -0.118 |
| AACGAAGG | -0.167 |
| CTCTAAAA | -0.0138 |
| ACGATGAG | 0.0459 |
| TTACCAAA | -0.0929 |
| CATACGCG | 0.275 |
| ATGACCGG | 0.0674 |
| AGGCGGTA | 0.258 |
| GGGTTATA | 0.0436 |
| ACCAAAAT | -0.0658 |
| AAACAACA | -0.231 |
| CCGTCGTA | 0.272 |
| GCCCGACA | 0.234 |
| AATCTCCG | 0.191 |
| TGGAGCAA | -0.091 |
| AACCACCA | -0.162 |
| CGGCTTCA | 0.261 |

Series 2
Target: RNA binding protein fox-1 homolog 2, RRM domain, GST-SBP tag (RBFOX2, Homo sapiens, UniProt O43251-10, residues 100-194)
Method: RNA Bind-n-Seq
Form: RNA
Matrix: in vitro
Tested at: 365 nM
Setting: natural RNA segment, single round, ends assumed
Reference: no-protein control
Reading: higher = stronger binding
Residues (chain): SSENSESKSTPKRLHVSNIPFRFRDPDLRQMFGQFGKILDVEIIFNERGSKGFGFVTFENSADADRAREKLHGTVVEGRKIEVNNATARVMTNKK
| Oligonucleotide | RBNS enrichment (R) |
| --- | --- |
| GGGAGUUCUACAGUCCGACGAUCAUAGGAAUAGCGUAGGAAUAGAAAUUUGCCCAAGACUUUGAUAGUCAUCUGGUUUCAGUUCAGCAAGGGUACUUGAAUCAAUAUGGUAGCCCCAUCUGGACCAUCCACCCUGGAAUUCUCGGGUGCCAA | 0.425 |
| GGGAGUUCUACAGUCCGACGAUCGUAACCCAUGAAGGCCCACAGCGGGAUGGGACUAGUUUAUAGGAGAGCGUUGUCAAUACCACUUAUAAAGCCAAGAAUUGCCAUGAUUUAAGACUAAGAUCUGUCUUUUUUGGAAUUCUCGGGUGCCAA | 0.639 |
| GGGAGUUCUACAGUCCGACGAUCAAGAAAGAAAUAACAUGGAAUUCUAUUUGAAGGACAACAGAACAUUCUUGGAAAAGCAGCUCCAGUUGGUUUUUCAACUGUCAAACUUGAAUGUGUAAGUCCCCACAGAGUGGAAUUCUCGGGUGCCAA | 0.501 |
| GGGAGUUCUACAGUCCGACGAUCAGAACCUGCUGGCCUUGUUAGACAGCACUUGGGCCUUUGCCAGCAGCAAGAGGUGAAGCGAAGCCACUCUUACCUCUCCCUUCCCCUCCCACCUGCCCCCUGCGUAGGCAUGGAAUUCUCGGGUGCCAA | 0.725 |
| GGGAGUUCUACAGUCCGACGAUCUUCAAUGUAGACUGCCAUUCUGUGUGGUCUUCCCAUUAAAUGUGAACAUUUUAAUAUGUAUGCAUUCACCUUGCCUCUUGCACAAAUGUCAAAAUGGAAAGAUGGGAAUGUGGAAUUCUCGGGUGCCAA | 0.323 |
| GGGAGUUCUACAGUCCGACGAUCCUUUCCCUCCAUUUCUGUGGCUUCCACGUCUGCAGUGGCCACUGAUACUCACUUGAGUCAGGCUCCCUCUGGCAGGAGGGAGCACUGUGGAUGUCUGCGCCAGGGCCAGCUGGAAUUCUCGGGUGCCAA | 0.592 |
| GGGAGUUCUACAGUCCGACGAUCACCAAGACUGAAAGAGGCAAGGUCUCCUUGCCUCGGCCCAGUGAUCAUGACAGGAAUGAACCCAAACUCAGAACAAUAAAAUCAAUUCUGUGCUCCCCACGCGGGGCUUGUGGAAUUCUCGGGUGCCAA | 0.287 |
| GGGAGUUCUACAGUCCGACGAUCACAGCAUACUCUGUCCUUCAGAAAGGCGUGAUUCUAGCUGUUGACCCCUUGCAGCUGUUGGAAUCUCUGCAAGAACCUCUGUAUUCUUCUAAUAAAUUCCCUCUUUUAUUUGGAAUUCUCGGGUGCCAA | 0.426 |
| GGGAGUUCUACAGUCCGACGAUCAAGCCUGAAGAGAAGUGAUCUUAGAGAAAGCAGAGAACAGAAUGGACUGGAUAGACAUCUUGACUCUAUUCAGCCCGUAGUCUGUGAUCUGGAGAGUCCAGUUAAGGUAAUGGAAUUCUCGGGUGCCAA | 0.337 |

Series 3
Target: Prothrombin, mature alpha-thrombin (F2, Homo sapiens, UniProt P00734)
Method: aptamer microarray, sandwich
Form: DNA with 2'F-ANA
Matrix: in vitro
Tested at: 200 nM
Setting: whole 15-mer aptamer, many near background
Added: Cy3 exosite-II aptamer, 400 nM
Reading: higher = stronger binding
Oligonucleotide: GGTTGGTGTGGTTGG
| Modification | mean fluorescence intensity |
| --- | --- |
| 2'F-ANA at 1 3 5 6 10 13 14 | 47.1 a.u. |
| 2'F-ANA at 1 4 5 9 12 | 118 a.u. |
| 2'F-ANA at 2 4 5 7 8 9 10 15 | 55.5 a.u. |
| 2'F-ANA at 1 5 6 7 8 10 12 | 49.3 a.u. |
| 2'F-ANA at 3 4 5 9 14 15 | 63.3 a.u. |
| 2'F-ANA at 4 8 9 10 11 12 13 14 15 | 53.7 a.u. |
| 2'F-ANA at 5 6 7 10 12 13 15 | 58.4 a.u. |
| 2'F-ANA at 2 3 5 6 7 8 13 | 76.1 a.u. |
| 2'F-ANA at 1 2 3 5 6 9 10 11 14 | 44.5 a.u. |
| 2'F-ANA at 2 12 13 14 | 189 a.u. |
| 2'F-ANA at 1 4 5 8 9 10 11 13 14 | 43.9 a.u. |
| 2'F-ANA at 1 2 5 6 7 8 12 13 | 87.6 a.u. |
| 2'F-ANA at 1 4 5 9 11 15 | 51.4 a.u. |
| 2'F-ANA at 1 3 4 5 6 9 10 13 15 | 49.8 a.u. |
| 2'F-ANA at 2 5 6 7 8 9 11 | 71.7 a.u. |
| 2'F-ANA at 3 4 9 14 | 328 a.u. |
| 2'F-ANA at 1 5 6 7 9 14 15 | 52.1 a.u. |
| 2'F-ANA at 1 2 3 4 5 7 13 14 15 | 45.2 a.u. |
| 2'F-ANA at 2 3 5 6 7 10 15 | 55.2 a.u. |
| 2'F-ANA at 5 12 13 15 | 107 a.u. |
| 2'F-ANA at 2 4 9 10 11 13 14 | 69 a.u. |
| 2'F-ANA at 2 3 4 5 7 8 9 10 13 | 50.8 a.u. |

Series 4
Target: Ras GTPase-activating protein-binding protein 1, full length (G3BP1, Homo sapiens, UniProt Q13283)
Sequence of UniProt Q13283 (whole entry, looked up): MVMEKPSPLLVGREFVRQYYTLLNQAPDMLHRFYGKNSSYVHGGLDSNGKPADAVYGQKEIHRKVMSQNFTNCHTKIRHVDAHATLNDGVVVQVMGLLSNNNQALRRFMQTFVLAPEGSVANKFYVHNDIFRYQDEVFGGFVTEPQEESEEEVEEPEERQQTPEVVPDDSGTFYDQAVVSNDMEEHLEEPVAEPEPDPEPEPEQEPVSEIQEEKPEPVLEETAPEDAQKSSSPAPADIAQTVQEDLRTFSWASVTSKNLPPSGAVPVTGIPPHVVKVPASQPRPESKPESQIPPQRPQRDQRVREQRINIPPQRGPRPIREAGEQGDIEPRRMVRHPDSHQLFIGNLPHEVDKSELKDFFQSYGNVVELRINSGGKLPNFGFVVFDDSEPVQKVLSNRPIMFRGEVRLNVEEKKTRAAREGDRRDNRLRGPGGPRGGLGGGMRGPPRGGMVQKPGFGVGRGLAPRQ
Method: RNA Bind-n-Seq
Form: RNA
Matrix: in vitro
Tested at: 200 nM
Setting: whole 134-nt RNA, ends assumed
Added: 150 mM KCl
Reference: input library
Reading: higher = stronger binding
| Oligonucleotide | log2 enrichment |
| --- | --- |
| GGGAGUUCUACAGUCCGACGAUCUGGGGUCUGCGUACGCCUGGAGUCCUUCCCCGCUGUGCUCAGCAUGGACCCUAUCCGGAGCUUCUGCGGGAAGCUGCGGUCUCUGGCCAGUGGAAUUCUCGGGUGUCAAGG | -0.661 |
| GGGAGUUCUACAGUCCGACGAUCUCAAGUCCUGUGCUACACAUCGUAUGUACCGAAUCGGGAAAGGGAGGGUUUGGGAAAGUAUUAUGUUACGCCGUUCGGAUCUGCACUUCCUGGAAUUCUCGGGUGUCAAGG | 0.918 |
| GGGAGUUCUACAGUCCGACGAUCACCAUGCAGGUGGGCAUCUUUGGGAAGCGGGGCAAGGGGGGGAUAGGGAGGGGGGUAACACUUUGGGAACAGGUGGUCCCAGGUCGUUUCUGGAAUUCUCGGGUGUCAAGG | 1.33 |
| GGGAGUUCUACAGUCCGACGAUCCAAGUCCUGUGCUACACAUCGUAUGUACCGAAUCGGGAAAAGGAAAAGGAAAAGGAAAGUAUUAUGUUACGCCGUUCGGAUCUGCACUUCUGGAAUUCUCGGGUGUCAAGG | -0.922 |
| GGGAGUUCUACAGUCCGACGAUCGUCCUGUGCUACACAUCGUAUGUACCGAAUCGUGUGUGUGUGUGUGUGUGUGUGUGUGAAAGUAUUAUGUUACGCCGUUCGGAUCUGCACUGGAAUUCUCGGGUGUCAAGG | 0.848 |
| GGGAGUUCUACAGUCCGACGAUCACCAUGCAGGUGGGCAUAAAUGGGAAGUGGGGCAAGGGGGGGAUAGGGAGGGGGGUAACACUUUGGGAACAGGUGGUCCCAGGUCGUUUCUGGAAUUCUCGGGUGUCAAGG | 1.05 |
| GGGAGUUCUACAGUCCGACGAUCUCCUGUGCUACACAUCGUAUGUACCGAAUCGGGGAAAGGGGUUUUUUUGGGGAAAGGGGAAAGUAUUAUGUUACGCCGUUCGGAUCUGCAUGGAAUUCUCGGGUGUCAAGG | 0.915 |
| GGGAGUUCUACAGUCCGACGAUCCCUGUGCUACACAUCGUAUGUACCGAAUCGGGGAAAAAAAGGGGUUUUUGGGGUUUGGGGAAAGUAUUAUGUUACGCCGUUCGGAUCUGCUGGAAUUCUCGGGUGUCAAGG | 0.231 |
| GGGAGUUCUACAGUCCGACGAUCUCCUGUGCUACACAUCGUAUGUACCGAAUCGGGGAAAAAGGGGAAAAAGGGGAAAGGGGAAAGUAUUAUGUUACGCCGUUCGGAUCUGCAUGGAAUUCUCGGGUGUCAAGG | 0.666 |
| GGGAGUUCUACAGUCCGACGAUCGUCCUGUGCUACACAUCGUAUGUACCGAAUCGGGGUUUUUGGGGUUUGGGGAAAGGGGAAAGUAUUAUGUUACGCCGUUCGGAUCUGCACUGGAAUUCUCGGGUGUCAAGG | 0.775 |
